Experimental data gathered from unrelated publications.
Numbered parts are unrelated; each lists some results of a single study. Positions count from the first letter of the parent shown.

Sample 1
Target: Signal transducer and activator of transcription 1-alpha/beta, full length (STAT1, Homo sapiens, UniProt P42224, residues 1-750)
UniProt P42224, sequence (whole entry, looked up): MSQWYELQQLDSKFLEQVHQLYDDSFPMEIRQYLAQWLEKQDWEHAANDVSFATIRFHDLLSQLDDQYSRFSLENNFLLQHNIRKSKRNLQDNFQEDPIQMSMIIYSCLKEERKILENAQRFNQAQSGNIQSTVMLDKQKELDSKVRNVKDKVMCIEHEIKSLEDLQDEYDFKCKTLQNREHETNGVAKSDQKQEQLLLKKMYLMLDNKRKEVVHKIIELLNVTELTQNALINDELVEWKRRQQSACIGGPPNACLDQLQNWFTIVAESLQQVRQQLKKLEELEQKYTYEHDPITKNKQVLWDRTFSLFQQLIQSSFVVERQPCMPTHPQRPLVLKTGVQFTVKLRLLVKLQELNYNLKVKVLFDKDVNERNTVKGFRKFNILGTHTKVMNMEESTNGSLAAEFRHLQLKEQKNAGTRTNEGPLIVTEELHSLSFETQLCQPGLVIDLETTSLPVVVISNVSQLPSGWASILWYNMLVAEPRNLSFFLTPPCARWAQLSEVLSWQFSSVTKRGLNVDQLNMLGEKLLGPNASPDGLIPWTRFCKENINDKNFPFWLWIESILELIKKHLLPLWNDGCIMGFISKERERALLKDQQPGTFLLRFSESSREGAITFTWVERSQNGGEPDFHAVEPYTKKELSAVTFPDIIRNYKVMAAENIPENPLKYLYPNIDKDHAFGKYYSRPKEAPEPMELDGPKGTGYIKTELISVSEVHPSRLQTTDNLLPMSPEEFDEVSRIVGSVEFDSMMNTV
Technique: protein-binding microarray
Form: hairpin DNA
Matrix: in vitro
Tested at: not given
Setting: whole hairpin DNA, median over replicate spots
Baseline: not given
Reading: higher = stronger binding
All sequences stand within: GAGGCC … GGCCTCACACTCTTTCCCTACACG
Strand | median fluorescence [a.u.]
TTTCCCGCCAGCCTCCTGGCTGGCGGGAAA (5mC at 14) | 1000
CGTCCCGGAAGCCTCCTGGCTTCCGGGACG | 1110
TTTCCCGCAAGCCTCCTGGCTTGCGGGAAA (5mC at 14) | 1290
TTTCCCGGACGCCTCCTGGCGTCCGGGAAA | 1330
TTTCCCGGCGGCCTCCTGGCCGCCGGGAAA (5mC at 15 27) | 1610
TTTCCCGCGAGCCTCCTGGCTCGCGGGAAA (5mC at 28) | 893
TTTCCCGGAAGCCTCCTGGCTTCCGGGAAA (5mC at 30) | 11900
TTCCCCGGAAGCCTCCTGGCTTCCGGGGAA (5mC at 9) | 2000

Sample 2
Target: ATF7, bZIP domain (human)
Technique: DHFR protein complementation
Matrix: yeast
Setting: single substitutions, most at no-binding floor
Baseline: wild-type JUN-FOS pair
Reading: higher = stronger binding
Starting sequence: JUN, bZIP domain (human); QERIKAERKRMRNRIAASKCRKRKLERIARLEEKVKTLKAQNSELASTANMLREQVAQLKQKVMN; partner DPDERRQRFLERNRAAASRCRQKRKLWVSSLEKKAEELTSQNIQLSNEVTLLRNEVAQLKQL
Variant | binding fitness [natural log]
E32Q | -1.07
L45F | -1.41
T48G | -1.44
A49R | -0.671
L52R | -1.4
I28P | -1.28
T37S | -0.876
R53H | -1.39

Single results of other studies
P1: viral docking peptide; KGVKRKLFAEDSS; partner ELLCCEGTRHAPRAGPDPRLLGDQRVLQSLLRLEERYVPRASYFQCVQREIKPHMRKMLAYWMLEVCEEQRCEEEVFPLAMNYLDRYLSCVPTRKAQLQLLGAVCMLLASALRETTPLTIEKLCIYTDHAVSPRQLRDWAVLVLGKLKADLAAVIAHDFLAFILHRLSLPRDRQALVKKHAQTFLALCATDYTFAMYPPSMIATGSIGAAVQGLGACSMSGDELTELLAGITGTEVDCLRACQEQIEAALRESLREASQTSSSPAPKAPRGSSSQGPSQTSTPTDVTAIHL
Substance | target | test | test system | conditions | scale | endpoint | result
YMKFFGNFK | HLA class I histocompatibility antigen, A alpha chain, allele A*25:01 (Homo sapiens, UniProt P04439) | peptide-MHC binding | peptide | concentration not given | – | binding | inactive
P1 A9S | CCND3, cyclin fold, Cln2 fusion (human) | yeast growth competition, sequencing | yeast | weak parent motif | baseline: not given, higher = stronger binding | normalised enrichment score | 0.155

Repeated from above (sample 1):
Strand | median fluorescence [a.u.]
TTTCCCGCAAGCCTCCTGGCTTGCGGGAAA (5mC at 14) | 1290
TTTCCCGGCGGCCTCCTGGCCGCCGGGAAA (5mC at 15 27) | 1610
